Measured values of several laboratories.
Each numbered part is a random draw from the data of one study; scales do not carry over between parts. Changes are numbered by the printed parent chain.

Block 1 — technique: DHFR PCA, deep sequencing; sample: yeast; with: (+)-ABA 200 µM; baseline: wild-type fitted maximum; reading: higher = stronger binding; endpoint: relative binding score
Target: ABI1, truncated, D143A, DHFR fusion (Arabidopsis thaliana)
Setting: methotrexate growth selection, single substitutions
Starting sequence: PYL1, truncated, DHFR fusion (Arabidopsis thaliana); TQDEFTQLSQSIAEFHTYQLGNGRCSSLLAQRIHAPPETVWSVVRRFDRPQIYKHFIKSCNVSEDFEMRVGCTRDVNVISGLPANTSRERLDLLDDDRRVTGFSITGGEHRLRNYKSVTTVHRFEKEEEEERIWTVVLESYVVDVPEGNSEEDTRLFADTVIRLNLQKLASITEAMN; partner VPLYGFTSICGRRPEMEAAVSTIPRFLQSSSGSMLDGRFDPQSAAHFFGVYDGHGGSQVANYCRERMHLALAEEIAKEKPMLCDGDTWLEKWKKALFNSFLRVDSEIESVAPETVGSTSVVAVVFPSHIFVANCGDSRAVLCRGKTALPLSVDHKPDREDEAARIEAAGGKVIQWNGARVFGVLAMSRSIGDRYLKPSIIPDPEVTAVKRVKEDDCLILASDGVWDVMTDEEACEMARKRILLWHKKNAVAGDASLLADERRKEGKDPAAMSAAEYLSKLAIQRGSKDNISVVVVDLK
S9T: 92.2%
P36E: 93.5%
F157T: 1.16%
F103A: 0.666%
R99T: 68.9%
I33M: 94.4%
R32P: 81.2%
S140T: 3.59%
M68R: 79.5%
G23L: 86.8%
S140Y: 20.5%
R155W: 36.9%
V142R: 85.5%
G81W: 0.708%
Y53A: 48.9%
Q2I: 97.7%
C25E: 23.9%
E125V: 103%
Q167S: 99%
V121S: 7.5%
L93H: 99.3%
D144F: 24.4%
E109M: 90.2%
E89F: -11.4%
N177C: 101%

Block 2 — technique: protein binding microarray; molecule type: double-stranded DNA, one strand shown; sample: in vitro; concentration: not given; baseline: not given; reading: higher = stronger binding; endpoint: E-score
Target: Histone acetyltransferase KAT6A, winged helix 1, GST fusion (KAT6A, Homo sapiens, UniProt Q92794, residues 1-85)
Setting: 8-mer, flanks averaged, mean of 2 arrays, mostly near background
Target sequence (chain): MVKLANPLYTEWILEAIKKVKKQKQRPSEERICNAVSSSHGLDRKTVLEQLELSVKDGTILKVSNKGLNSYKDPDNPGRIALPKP
GCTTGAAC: -0.00656
CCATGCAA: -0.0615
CGAGGTCA: -0.108
CGTGTTGA: -0.143
CTAGAGGA: -0.177
CGTGTCAG: -0.00145
AGCGGCTC: 0.306
TCATCACA: -0.177
CTATCGGC: 0.274
CGAATCCA: -0.126
CCACTGCC: -0.102
CCTAACGA: -0.0116
CCTGTGCA: 0.0327
AGATGTCC: -0.0375
AAGTATCA: -0.206
CGTCACCC: 0.147
AGGGCCCC: 0.0826
GTGGATTA: -0.104
ACCAGAAT: -0.0872
ATCTAGAG: -0.156
ACTGTATC: -0.00771
ATCGTCCC: -0.107
ACAAATTC: -0.138
GGCAGCCA: 0.0173
GCATCAGA: -0.178

Block 3 — technique: RNAcompete; molecule type: RNA; sample: in vitro; concentration: 20 nM; setting: 7-mer, probes averaged, single round; baseline: mean of 7-mers; reading: higher = stronger binding; endpoint: 7-mer Z-score
Target: PABPC1L2, full length, GST fusion (mouse, UniProt A0ABA7IW68)
Target sequence (chain): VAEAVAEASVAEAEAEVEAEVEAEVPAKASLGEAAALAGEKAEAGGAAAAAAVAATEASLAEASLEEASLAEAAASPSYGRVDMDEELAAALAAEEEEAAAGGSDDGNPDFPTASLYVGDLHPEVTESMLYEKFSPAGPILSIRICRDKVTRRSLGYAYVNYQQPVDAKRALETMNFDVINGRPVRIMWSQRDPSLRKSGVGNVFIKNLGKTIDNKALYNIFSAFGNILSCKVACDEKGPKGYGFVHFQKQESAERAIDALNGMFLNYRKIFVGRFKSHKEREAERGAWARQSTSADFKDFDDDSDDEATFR
UCUUCGC: -0.336
ACCGUAA: -0.103
AGUAAGC: -0.112
UACUAUC: -0.257
AGUGUUA: -0.155
GGGUACU: 0.129
CGUAGCA: -0.0863
CUGAACA: 0.0515
CUUCGCC: -0.441
UGAGGCU: -0.166
UCUCUCC: -0.438
ACAGAAU: 0.0732
AAUCAAC: 0.0406
CCGCAGA: 0.0424
CUAUUAA: 0.209
UAUUUAG: 0.216
AGGACCG: 0.133
AGUCUGC: -0.324
CGCGUGA: -0.146
GGGUACA: 0.41
GCACAAA: 1.18
GUCUCUG: -0.266
GUACCUU: -0.161
AAUAUCC: 0.104
GGGCGUA: 0.22

Block 4 — technique: RNA Bind-n-Seq; molecule type: RNA; sample: in vitro; concentration: not given; baseline: input RNA pool; reading: higher = stronger binding; endpoint: bound/input enrichment
Target: RING finger protein unkempt homolog, zinc fingers 1-6, GST-SBP tag (UNK, Homo sapiens, UniProt Q9C0B0, residues 30-357)
Setting: RNA with constant flanks, human-mouse chimeric sites, ends assumed
Construct (chain): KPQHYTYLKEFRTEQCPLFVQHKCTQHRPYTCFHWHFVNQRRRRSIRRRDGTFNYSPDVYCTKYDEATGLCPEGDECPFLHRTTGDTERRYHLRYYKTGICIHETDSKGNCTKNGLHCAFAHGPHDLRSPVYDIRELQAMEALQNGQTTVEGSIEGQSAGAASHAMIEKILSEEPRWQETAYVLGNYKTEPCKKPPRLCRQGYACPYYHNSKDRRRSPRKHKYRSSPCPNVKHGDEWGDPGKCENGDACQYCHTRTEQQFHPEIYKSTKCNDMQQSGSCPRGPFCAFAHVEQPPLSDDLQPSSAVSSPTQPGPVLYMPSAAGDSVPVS
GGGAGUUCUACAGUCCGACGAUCGAAUCCUACUCAGGCGGUCCCACAACAACCAAGCUCACAGCAGCAGCAUCUUAGUCACAGUAGGGUAGUUUUGGGGCUCUGUGGCCAUGGUUUUACUCACAUGCAGGUUUGGAAAAUGUACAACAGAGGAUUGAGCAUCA: 1.03 ratio
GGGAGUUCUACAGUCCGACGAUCAGAGCCCAGGAUGUUGAUGCUACAAAUCCAAAUUAUGAAAUUAUGUGUAUGAUCAGAGACUUCAGAGGGAGCUUGGAUUACAGACCCCUAACAACAGCAGAUCCUAUUGAUGAACAUAGGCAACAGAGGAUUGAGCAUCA: 0.426 ratio
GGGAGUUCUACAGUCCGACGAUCUGUAGUUGAUCCCCUGCUCAUUUUUCUCUUUUCUUUCUUUCCUUUAGGAAAAGCCUAAAGAUUAGGUUGUAAGAAAAGAAAAUAGAAUGUUUCGAAGACCUGUGUUACAGGUAUUUCGUCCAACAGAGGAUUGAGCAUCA: 0.105 ratio
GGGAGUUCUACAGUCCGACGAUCGGCCUGGGACCGUCCUGGGCUAGUACAAAUAGCGGCAGUGGAGGCUCGAGAGGAAAGUUGUUAGUGGGAGGCAGUGGUAGAGGCCGUCAUGUACGGUCCUUUACUCGAUAGAUGUGUUCUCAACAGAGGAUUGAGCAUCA: 0.574 ratio
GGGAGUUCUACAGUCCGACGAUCGAUCAUGAACCACCAUCAGAAAUGAAGAUGAGAUUACCCAGACGAGCCAAAACAGCUGCGCUACAGAAAAGUAAACUUAACCUUGCACCAAUUUCUCAUGAAGAUACAAGUUAAGAGAGCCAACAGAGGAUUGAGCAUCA: 0.348 ratio
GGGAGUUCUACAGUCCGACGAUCCGCUUGGAUGAGGCGGGUGUCACAGAUGAAGUGCUAGAUUCUGCCAUGCAAGCCUUCCUUCUGGAGGUUAUCGUUAAACAUGGGGAGCCGGCACCUUAUUUAUGUAACAAAGAUCCGUUUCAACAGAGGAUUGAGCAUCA: 0.11 ratio
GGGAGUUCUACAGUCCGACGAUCUGGCGCCUCCCAUUUUUACUCGUGUUUUUAAGUGUAUUUUUAUAAGAUACAUGUAUUUACAAUUGAGCUUUUGUUACAUAAUGCUGAAAUGCUACUGGAGAUUAUGAAAAAAUGUUAAAUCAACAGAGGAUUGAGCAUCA: 0.291 ratio
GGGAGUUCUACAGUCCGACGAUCAGCGUUCAGGAAUUCAUGACCUUUACAAGUCAACUGAUUGUGGAACGCUCAUCGAAAGGCAGCAGAGCUUCUGUCAAAGAACAAGAGUAUCUUUGCCAUGUCUACGUCCGGAGCGACAGUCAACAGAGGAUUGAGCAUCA: 0.0559 ratio
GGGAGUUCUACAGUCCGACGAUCGAAUCCUACUCAGGCGGAUUUUGCAACACCAAGCUCAAGUAGCAAUUAUCUUAGUCACAGUAGGGUAGUUUUGGGGCAAUAUUGCCAGGGUUUUAUUCACAUGCAGGUUUGGAAAAUGUACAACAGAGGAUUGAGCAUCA: 2.5 ratio
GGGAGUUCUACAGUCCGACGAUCUCCCAAAUCCAGCAGCUAGAAGGAGCCUUGAGACAAACACUCCACACACAGGGAAGGCGAUAACAUUGUACAUUGGUUUACAUUUUUCUCCUUGAAUGAUUUUUCUAUCCUAGUGCUUGCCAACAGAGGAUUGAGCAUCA: 0.554 ratio
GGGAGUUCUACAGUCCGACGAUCGCGAACAGGACUACAGAAAUGCUGGUAAUUUCAGUCACUUGCUGAUGACUUCUGAUGUCCCAGCAAAUGUUGGCAUUGUUGACUGCUGAGAAGAUACACUCGCAAGGCCACGUCUAAGGUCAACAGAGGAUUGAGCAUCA: 0.0981 ratio

Block 5 — technique: RNA Bind-n-Seq; molecule type: RNA; sample: in vitro; concentration: 365 nM; baseline: no-protein control; reading: higher = stronger binding; endpoint: RBNS enrichment (R)
Target: RNA binding protein fox-1 homolog 2, RRM domain, GST-SBP tag (RBFOX2, Homo sapiens, UniProt O43251-10, residues 100-194)
Setting: natural RNA segment, single round, ends assumed
Construct (chain): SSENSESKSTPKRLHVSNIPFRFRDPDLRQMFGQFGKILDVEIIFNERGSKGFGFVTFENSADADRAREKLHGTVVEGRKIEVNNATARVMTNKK
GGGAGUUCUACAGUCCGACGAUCUCAGCACCAGGCCUGUAUAACGUGGUUCUCACGUUACCCUGGCAGCAUACAGGAUGGGGAGUCUGGUGUAUUCAGUGUUCACAGUCAGCAGACAUGGUGACCUGGUGGGAUGGAAUUCUCGGGUGCCAA: 0.327
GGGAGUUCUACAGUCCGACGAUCUUUCACUCUAUCCCUGCUUCAGUUUUUGCAGAUUAACAGUUCUAUUAGUGAUUUGGAAAGUUAACAGUAAGAAGACUAACUUUUCAAAACAGUUGCAUCUGUAGAUUAAGUGGAAUUCUCGGGUGCCAA: 0.431
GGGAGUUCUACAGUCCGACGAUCCAGGGUUUCUCUGUGUAGCCCUGGCUGUCCUGGAACUCUGUAGACUGGGCUGGCCUCGAACUCAGAGAUCUGCCUGCCCUUGCUGGGAUCAGAGGUGUGCACCACCACUGUGGAAUUCUCGGGUGCCAA: 0.323
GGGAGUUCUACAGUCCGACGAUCUUUUUAAAUGCUACUUUGUAAAGGUGACCUUUAAAAAAUAAAAGGAAAAUAAAGAAUGUUAGUUUCAUUCUGCCGCUUUAUUUUUUUAACUUUUUCAGAAUAUAGUUUUAUGGAAUUCUCGGGUGCCAA: 0.724
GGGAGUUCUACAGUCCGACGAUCUUUGUAAAACUGCUAAGCCAUUCUCAUGCACAUGGGUGAAUGACAUUUCCUAGGAACGGUCUCUGACUCCUGGACAACUACUCCUGUAUCGGCUCUGGCUCCCCGGAACCUGGAAUUCUCGGGUGCCAA: 0.728
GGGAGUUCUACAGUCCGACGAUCCCAGGAGUAGAAUAUGAAGUGCUAAAUCUGAAUGUAAGAAAAAUAAUAGUAUUGAAUGGGGUAUUUACUGUUGAUUAACCUCCUUAGAGAAAAUUAAUGAAUGAGAUGACUGGAAUUCUCGGGUGCCAA: 7.32
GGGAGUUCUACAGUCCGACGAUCAAGGCAUACAGGAGGGGGCCCACUGAUCUUUGUCAGAUGGCCUGCAGGCACUCUGCAGAGGAUGGAAGAGGAGACCCCUGUUCUGGGCUUAUUUAUUAAUCUUGAUUUAAUGGAAUUCUCGGGUGCCAA: 0.424
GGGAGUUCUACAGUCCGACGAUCCAGAACUGAGUCUAUAGCCCAGGUCUGCUGGCUUCCAGCACAUGUUGUACACUAAGAUUUCAUGCAGACACCAUUGCUGUGGAGCCGAUUGAAAUUUAACCCUGCUCCAUUGGAAUUCUCGGGUGCCAA: 0.32
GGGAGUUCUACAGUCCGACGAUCCCAUGUUCCUAGACAAAGUCCUAAGCUGUUUGGAAGUCUGUGAGCAUUUUCAGUAUAUGAGGAGCUGAGAAAGCGCUGCCUGUCUGGUCCUUCAUUUGGCCAGCUAACAUUGGAAUUCUCGGGUGCCAA: 0.754
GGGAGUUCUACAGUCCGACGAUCUCAAUGACAUCUCUCAGAGCAUUUUUGUUUUCUCCUCUGAAGGUCCAUCCAGUUGCAUUGGGAAGGGUUGAGGGGCCUGAUUCUGGGGCUGGCUAAUGCCAGCUCUCGGGUGGAAUUCUCGGGUGCCAA: 0.711
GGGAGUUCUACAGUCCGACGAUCCAAAAUGUCUUAAUGCAAAUUUUGUAUUUCUUACAGGCCUACAGAAAUUGAAAAUGACCAAAAUCAGGAACCACAGAUUUGUGCCCAUUCCUAAUAUUUUGUUCUGCAAAUGGAAUUCUCGGGUGCCAA: 0.36
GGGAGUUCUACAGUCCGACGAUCGGGAGAACCUUAGACACUUCACCAAAUUCUGCAAUGACAGCUGGGGUAUUUUAAAGUUUAUGAUGAAGUAUUCUUUUUAUAUUCUUAAAUAUAAACUUGGAAAGGCAUUUUGGAAUUCUCGGGUGCCAA: 0.471
